Experimental data of several laboratories.
A part holds a random share of what one study measured.

Series 1
Target: Sal-like protein 4, full length isoform A (SALL4, Homo sapiens, UniProt Q9UJQ4, residues 1-1053)
UniProt Q9UJQ4, sequence (whole entry, looked up): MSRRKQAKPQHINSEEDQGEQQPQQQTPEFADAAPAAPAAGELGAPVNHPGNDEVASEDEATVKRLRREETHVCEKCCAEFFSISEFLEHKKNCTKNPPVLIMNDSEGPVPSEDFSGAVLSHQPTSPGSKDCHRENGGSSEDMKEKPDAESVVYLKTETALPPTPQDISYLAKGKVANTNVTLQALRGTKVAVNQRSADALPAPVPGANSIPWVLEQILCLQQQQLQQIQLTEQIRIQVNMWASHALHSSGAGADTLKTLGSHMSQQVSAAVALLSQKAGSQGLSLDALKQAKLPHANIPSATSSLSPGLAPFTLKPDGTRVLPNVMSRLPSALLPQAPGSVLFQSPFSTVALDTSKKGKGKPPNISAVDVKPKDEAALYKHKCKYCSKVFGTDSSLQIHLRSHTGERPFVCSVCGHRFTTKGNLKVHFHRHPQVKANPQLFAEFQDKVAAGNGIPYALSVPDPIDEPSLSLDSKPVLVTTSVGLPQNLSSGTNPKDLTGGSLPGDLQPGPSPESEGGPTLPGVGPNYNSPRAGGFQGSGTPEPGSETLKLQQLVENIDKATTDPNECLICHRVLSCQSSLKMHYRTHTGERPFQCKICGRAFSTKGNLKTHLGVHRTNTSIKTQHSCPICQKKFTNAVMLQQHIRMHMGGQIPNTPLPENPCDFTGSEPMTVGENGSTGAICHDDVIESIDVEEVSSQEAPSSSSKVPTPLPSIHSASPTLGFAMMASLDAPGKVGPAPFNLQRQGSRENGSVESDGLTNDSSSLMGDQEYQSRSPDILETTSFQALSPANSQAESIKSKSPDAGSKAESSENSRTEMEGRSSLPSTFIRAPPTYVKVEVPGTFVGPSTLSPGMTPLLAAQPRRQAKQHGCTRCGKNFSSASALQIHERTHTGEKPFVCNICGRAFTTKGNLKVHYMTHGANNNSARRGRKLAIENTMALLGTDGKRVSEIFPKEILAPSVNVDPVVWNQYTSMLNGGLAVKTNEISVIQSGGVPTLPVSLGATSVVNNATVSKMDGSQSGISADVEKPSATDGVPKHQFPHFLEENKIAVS
Method: universal PBM
Form: double-stranded DNA, one strand shown
Medium: in vitro
Tested at: 600 nM
Setting: 8-mer, flanks averaged, mean of replicates
Direction: higher = stronger binding
Measurement: E-score
GCATTCTA: 0.146
GCACTTTA: 0.13
CTGGTACA: 0.0587
CTTTGCTA: 0.212

Series 2
Target: RNA binding protein fox-1 homolog 2, RRM domain, GST-SBP tag (RBFOX2, Homo sapiens, UniProt O43251-10, residues 100-194)
Method: RNA Bind-n-Seq
Form: RNA
Medium: in vitro
Tested at: 365 nM
Setting: natural RNA segment, single round, ends assumed
Reference: no-protein control
Direction: higher = stronger binding
Measurement: RBNS enrichment (R)
Residues (chain): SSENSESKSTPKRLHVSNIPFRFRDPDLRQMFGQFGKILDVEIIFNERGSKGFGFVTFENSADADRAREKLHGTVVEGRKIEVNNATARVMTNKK
GGGAGUUCUACAGUCCGACGAUCACACAAUUGUUCAUUGUGGUUUGUAUCCCAGAAUGUGUUGUGUUUUUUAAAAGAUGCAUAAUAGCUGAAUGUAUGCAUGACUUUGAAAGAAGUUAAAAUGGUGAUUUUUUUGGAAUUCUCGGGUGCCAA: 5.92
GGGAGUUCUACAGUCCGACGAUCUCUCACUGAGCUCCUCGCCCCAAAUAUCCCGGUGCUGCCCCUGCUGUCCAGGCUCCAGUGUGACAAUGGGUUGAGUCUCCAGGCCCUGGCCAGGACAUCCUGCUAUCAAUUGGAAUUCUCGGGUGCCAA: 0.359
GGGAGUUCUACAGUCCGACGAUCACAGCCAUCUGGUUAUGUCUUAUUUUUUUCCUAAAAGAUAAUGUUUAUUUUUAAAAAGGAAGGAAGGAGCAAGUGAAGUUUCAUUCUGCUCCAGCGGUGGGGAAGCCGCUUGGAAUUCUCGGGUGCCAA: 0.257

Series 3
Target: Interferon regulatory factor 3, full length, phosphomimetic (IRF3, Homo sapiens, UniProt Q14653, residues 1-427, S386D/S396D/S398D/S402D/T404D/S405D)
Method: protein-binding microarray
Form: double-stranded DNA, one strand shown
Medium: in vitro
Tested at: 2540 nM top
Setting: 60-bp whole probe
With: salmon DNA 0.4 mg/ml
Reference: random background probes
Direction: higher = stronger binding
Measurement: fitted relative affinity
Target sequence (chain): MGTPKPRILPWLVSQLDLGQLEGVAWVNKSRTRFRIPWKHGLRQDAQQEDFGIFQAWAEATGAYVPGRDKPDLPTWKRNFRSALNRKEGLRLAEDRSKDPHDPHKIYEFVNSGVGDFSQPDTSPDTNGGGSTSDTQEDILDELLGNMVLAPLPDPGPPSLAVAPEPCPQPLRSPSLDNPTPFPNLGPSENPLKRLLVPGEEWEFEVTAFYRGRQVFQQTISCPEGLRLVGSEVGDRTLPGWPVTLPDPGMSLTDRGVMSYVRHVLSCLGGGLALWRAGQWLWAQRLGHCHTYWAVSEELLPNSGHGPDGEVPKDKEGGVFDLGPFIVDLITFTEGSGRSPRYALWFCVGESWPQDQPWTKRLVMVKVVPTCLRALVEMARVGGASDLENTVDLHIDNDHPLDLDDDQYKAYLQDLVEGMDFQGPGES
GCCTAGCACTTAGGTTCCCTTTTCATTTAGTGCTAGGTCTTGATTCGCTTGACGCTGCTG: 7.33 z-score
GCCTAGCACCTCTGCTTGGGTCTGGGTATGTGCTAGGTCTTGATTCGCTTGACGCTGCTG: -0.543 z-score
GCCTAGCACTCAGGTTCCCTTTTCCTTTAGTGCTAGGTCTTGATTCGCTTGACGCTGCTG: 6.73 z-score

Other studies, line by line
PhoQ, residues 284 288 289 292 302 303 TNSAEL — fold induction (PhoP, residues 12 14 15 18 19 LYHSL (Escherichia coli, UniProt P23836); Sort-seq, item: YFP reporter; E. coli; PhoQ-PhoP variant library, with: 10 µM Mg2+; reference: high Mg2+ state, higher = stronger signaling): 26.2

A few entries again (series 2):
GGGAGUUCUACAGUCCGACGAUCACACAAUUGUUCAUUGUGGUUUGUAUCCCAGAAUGUGUUGUGUUUUUUAAAAGAUGCAUAAUAGCUGAAUGUAUGCAUGACUUUGAAAGAAGUUAAAAUGGUGAUUUUUUUGGAAUUCUCGGGUGCCAA: 5.92
